Results gathered from unrelated publications.
Lines come from different studies, so protocols differ. Several values in a cell are separate wells, animals, samples, runs or records. ± marks the error that the study gave. Converted amounts (≈) assume the structure as drawn.
Sequence of UniProt Q9UKE5 (whole entry, looked up): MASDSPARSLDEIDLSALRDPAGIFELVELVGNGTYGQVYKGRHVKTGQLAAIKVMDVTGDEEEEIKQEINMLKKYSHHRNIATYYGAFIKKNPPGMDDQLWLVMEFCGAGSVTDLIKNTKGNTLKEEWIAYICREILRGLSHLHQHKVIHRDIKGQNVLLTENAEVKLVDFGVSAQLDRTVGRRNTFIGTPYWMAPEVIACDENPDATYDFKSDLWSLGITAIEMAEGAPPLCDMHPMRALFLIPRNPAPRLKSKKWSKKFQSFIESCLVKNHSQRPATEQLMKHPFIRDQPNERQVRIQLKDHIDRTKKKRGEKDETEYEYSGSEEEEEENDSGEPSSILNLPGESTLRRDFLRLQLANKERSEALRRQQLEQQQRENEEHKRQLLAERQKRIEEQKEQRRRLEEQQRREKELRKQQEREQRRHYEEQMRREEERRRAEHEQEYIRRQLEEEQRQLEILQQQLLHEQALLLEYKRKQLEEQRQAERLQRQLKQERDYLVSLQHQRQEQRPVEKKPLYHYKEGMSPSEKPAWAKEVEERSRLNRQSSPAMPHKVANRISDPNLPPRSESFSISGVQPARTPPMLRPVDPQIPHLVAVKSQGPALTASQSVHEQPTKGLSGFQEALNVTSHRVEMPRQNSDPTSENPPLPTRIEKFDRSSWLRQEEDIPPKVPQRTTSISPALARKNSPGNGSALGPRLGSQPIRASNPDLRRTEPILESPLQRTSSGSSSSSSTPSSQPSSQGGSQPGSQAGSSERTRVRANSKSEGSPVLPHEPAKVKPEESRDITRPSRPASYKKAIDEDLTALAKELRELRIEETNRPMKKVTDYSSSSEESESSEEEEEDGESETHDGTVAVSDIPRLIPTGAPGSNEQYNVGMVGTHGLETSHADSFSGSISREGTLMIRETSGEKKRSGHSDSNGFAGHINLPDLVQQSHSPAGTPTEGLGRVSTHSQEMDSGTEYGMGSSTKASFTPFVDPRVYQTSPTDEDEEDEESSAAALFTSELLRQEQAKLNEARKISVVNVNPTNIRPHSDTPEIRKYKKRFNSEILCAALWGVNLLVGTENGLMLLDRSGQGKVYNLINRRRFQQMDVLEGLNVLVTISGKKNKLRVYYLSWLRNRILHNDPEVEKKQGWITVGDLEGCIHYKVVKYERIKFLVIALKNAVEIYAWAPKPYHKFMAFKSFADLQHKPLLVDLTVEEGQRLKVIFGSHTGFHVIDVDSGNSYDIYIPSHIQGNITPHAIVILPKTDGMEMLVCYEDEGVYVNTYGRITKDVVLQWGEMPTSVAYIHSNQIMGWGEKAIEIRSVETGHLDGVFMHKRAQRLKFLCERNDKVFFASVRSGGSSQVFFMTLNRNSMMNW

Compound	target or system	test	system	conditions	scale	endpoint	result
CC[C@H]1[C@@H](O)[C@@H]2[C@H](CC[C@]3(C)[C@@H]([C@H](C)CCNC(=O)NS(=O)(=O)c4ccc(C(C)(C)C)cc4)CC[C@@H]23)[C@@]2(C)CC[C@@H](O)C[C@@H]12	ABCB1 (Homo sapiens, UniProt P08183)	–	human, plasma	dose not given, median, with: quinidine	–	Tmax	4 h
C[C@H](NC(=O)[C@]1(Cc2ccccc2)CCN1C(=O)Oc1cccc2ccccc12)C(N)=O	HEL	cell morphology	–	–	–	minimum cytotoxic concentration	> 100 µM
O=c1[nH]c(=O)n([C@H]2C[C@H](O)[C@@H](CO)O2)cc1/C=C/Br	HEL	–	–	–	–	minimum cytotoxic concentration	> 250 µM
CC[C@@H]1[C@H](F)C(=O)N[C@@H]1COc1nccc2cc(C(N)=O)c(OC)cc12	TNIK (Homo sapiens, UniProt Q9UKE5)	ATP probe binding, KiNativ profiling, measured: Lys1 probe site	THP-1 cell lysate	0.2 mM	–	inhibition	-20.6%
O=C(O)CNC(=O)c1ncc(-c2cccc(Cl)c2)cc1O	MDCK low-efflux cells	passive permeability	–	apical to basolateral	–	Papp	16 ×10⁻⁶ cm/s
Cc1cccc(C)c1N(CC(=O)Nc1ccc(-c2ncon2)cc1)C(=O)C1CCS(=O)(=O)CC1	primary human fibroblasts uninfected	live/dead staining	–	48 h	–	CC50	> 60 µM
Cc1cn([C@H]2C[C@H](N=[N+]=[N-])[C@@H](CO)O2)c(=O)[nH]c1=O	Cells, MOLT-4 and HUVEC	–	RPMI-1640, 10% FBS	concentration not given, constant extracellular exposure	–	time to intracellular steady state	~10 h
O=P1(C2CCCCC2)CCCCC1	HCT-116	trypan blue	–	IC50, 72 h	–	viability	90.7%
CCCCCCCCN=c1ccn(CCCCCCCCCCn2ccc(=NCCCCCCCC)cc2)cc1	red blood cells	hemolysis	–	–	–	lysis20	8 µM
OC(CCN1CCCCC1)(c1ccccc1)C1CC2C=CC1C2 (stereo not drawn)	–	resting-state EEG	healthy elderly humans	oral, 4 mg, eyes open, LS mean	–	EEG gamma power, O2 Pz	0.8 µV²
Oc1ccccc1-c1n[nH]cc1-c1ccnc2ccccc12	HRK1 (Candida albicans)	kinase binding, MIB/MS competition	Candida albicans lysate	1 µM	reference: DMSO	log2 fold change	0.02
CC(C)C[C@H](NC(=O)C[C@H](O)[C@H](CC(C)C)NC(=O)[C@H](Cc1c[nH]cn1)NC(=O)CNC(=O)[C@@H](NC(=O)[C@H](C)NC(=O)[C@H](Cc1c[nH]c2ccccc12)NC(=O)[C@H](CCC(N)=O)NC(=O)[C@@H](Cc1ccccc1)NC(=O)COCCOCCNC(=O)CCC(C(=O)O)N1CCN(CC(=O)O)CCN(CC(=O)O)CCN(CC(=O)O)CC1)C(C)C)C(N)=O (stereo partly drawn) [lutetium-177 labelled]	–	–	BALB/c nu/nu mice, female, stomach	100 pmol, 30 min, time course 0.5 h, with: PA 300 µg	–	tissue uptake	4 ± 1 %ID/g
CC(=O)NC[C@H]1CN(c2ccc(N3CCOCC3)c(F)c2)C(=O)O1	Enterococcus faecalis	agar dilution	vancomycin-susceptible, 74 isolates	–	–	MIC50	1 µg/mL (≈ 2.96 µM)
CN1C(C(=O)Nc2cccc(F)n2)=C(O)c2ccccc2S1(=O)=O	MDCK low-efflux cells	passive permeability	–	apical to basolateral	–	Papp	43 ×10⁻⁶ cm/s
CC1(C)CC(=O)c2c(C(F)(F)F)nn(-c3ccc(C(N)=O)c(N[C@H]4CC[C@H](O)CC4)c3)c2C1	primary human fibroblasts uninfected	live/dead staining	–	48 h, capped at 10.00 µM	–	CC50	> 10 µM
COc1ccccc1OCC(O)CN1CCN(CC(=O)Nc2c(C)cccc2C)CC1 (stereo not drawn)	hiPSC-derived cardiomyocytes	–	–	50 µM, coupled and decoupled	–	spike slope	decreased
O[C@H]1[C@H](OCc2cn(Cc3ccc(F)cc3)nn2)O[C@H]2[C@@H]1OC[C@H]2O	SU-DHL10	cytotoxicity, CellTiter-Glo	–	up to 30 µM, 72 h	–	viability	not toxic
CC(C)C[C@H](NC(=O)C[C@H](O)[C@H](CC(C)C)NC(=O)[C@H](Cc1c[nH]cn1)NC(=O)CNC(=O)[C@@H](NC(=O)[C@H](C)NC(=O)[C@H](Cc1c[nH]c2ccccc12)NC(=O)[C@H](CCC(N)=O)NC(=O)[C@@H](Cc1ccccc1)NC(=O)COCCOCCNC(=O)CN1CCN(CC(=O)O)CCN(CC(=O)O)CCN(CC(=O)O)CC1)C(C)C)C(N)=O [lutetium-177 labelled]	–	–	BALB/c nu/nu mice, female, carcass incl. GI tract contents	intravenous, 50 pmol, 24 h	–	tissue uptake	0.2 ± 0.1 %ID
COc1cccc(-c2n[nH]c(SCc3ccccn3)n2)c1OC	CHO-WBL	–	–	200 µg/mL, 3 h, without S9	–	micronuclei per binucleated cell	0.015
CC(CCC(=O)NCC(=O)O)C1CCC2C3C(O)CC4CC(O)CCC4(C)C3CCC12C (stereo not drawn)	human hepatocytes in suspension	measured: cholic acid, CDCA	–	100 µM, 1 h	–	bile salt transported fraction	> 90%
CCOC(=O)c1c(C)nc(NCCCCNc2ccnc3cc(Cl)ccc23)nc1-c1ccccc1	HEL	cell morphology	–	–	–	minimum cytotoxic concentration	20 µM
CNCc1ccc(-c2[nH]c3cc(F)cc4c3c2CCNC4=O)cc1	SW-620	[14C] uptake	–	400 nM	–	time to steady state	30 min
COc1cc(O)c2nc(C)ccc2c1	RRCK low-efflux MDCK-II cells	–	–	1.5 h, 37 °C, apical to basal	–	Papp	0.44 ×10⁻⁶ cm/s
Nc1nc(O)c2ncn(COC(CO)CO)c2n1	HEL	cell morphology	–	–	–	minimum cytotoxic concentration	394 µM
O=C(O[C@@H]1COC(=O)c2cc(O)c(O)c(O)c2-c2c(cc(O)c(O)c2O)C(=O)O[C@H]1[C@@H]1OC(=O)c2cc(O)c(O)c(O)c2-c2c(O)c(O)c(O)c3c2C(=O)O[C@H]1[C@@H]3O)c1cc(O)c(O)c(O)c1	RPE cells	cytotoxicity	–	48 h	–	IC50	> 100 µg/mL
Nc1ncnc2c1ncn2C1CCCC1	SW-620	CellTiter-Glo	–	up to 100 µM, 8 days	reference: vehicle	viability	> 80%

Compound	target or system	test	system	conditions	scale	endpoint	result
Cc1nn(C)cc1S(=O)(=O)NC(=O)c1ccc(-n2ccc(OCC(C)(C)C(F)(F)F)n2)nc1N1C[C@@H](C)CC1(C)C	MDCK low-efflux cells	passive permeability	–	apical to basolateral	–	Papp	34.2 ×10⁻⁶ cm/s
C/C(O)=C(\C#N)C(=O)Nc1ccc(C(F)(F)F)cc1	EL4	–	culture medium	4 µM, 48 h	–	free drug concentration	1040 nM
Cn1cc(-c2ccc(-c3cncc(Cl)c3N3CCC4(CCNC4=O)CC3)cc2)cn1	COLO 205	gene expression, microarray, measured: TNFRSF12A mRNA	–	concentration not given, 6 h	reference: untreated cells	log2 fold change	1.85
Cc1nc(NCCNc2ccnc3cc(Cl)ccc23)nc(-c2ccccc2[N+](=O)[O-])c1C(=O)OC(C)C	HEL	cell morphology	–	–	–	minimum cytotoxic concentration	100 µM
C[C@H](NC(=O)[C@]1(Cc2ccccc2)CCN1C(=O)OCc1ccccc1)C(=O)NC(C)(C)C	HEL	cell morphology	–	–	–	minimum cytotoxic concentration	> 100 µM
COc1ccc(-c2nc(N3CCOCC3)c3sc(CN(C)c4ncc(C(=O)NO)cn4)cc3n2)cn1	primary human fibroblasts uninfected	live/dead staining	–	48 h	–	CC50	1.49 µM
CN1CCc2c(c3ccccc3n2Cc2ccc(C(=O)NO)cc2)C1	NDHF fibroblasts	MTS	–	120 h	–	CC50	30 µM
CC(=O)N(C)[C@H]1CCN(C(=O)c2cnc3c(c2)C[C@](C)(c2ccc(F)cc2)N3)C1	vanin activity	–	human, whole blood ex vivo stimulated	15 mg, 1 h post-dose	reference: baseline	pantothenic acid level	17.4%
O=C(Nc1ccc([N+](=O)[O-])cc1Cl)c1cc(Cl)ccc1O	primary human keratinocytes	–	–	20 h	–	CC50	> 10 µM
CC(C)[C@H](NC(=O)[C@H](Cc1ccc(O)cc1)NC(=O)[C@H](Cc1ccc(O)cc1)NC(=O)[C@@H]1CCCN1C(=O)[C@H](CCC(=O)O)NC(=O)[C@H](CCC(=O)O)NC(=O)[C@H](Cc1c[nH]c2ccccc12)NC(=O)[C@@H]1CCCN1C(=O)[C@@H](NC(=O)[C@H](CCC(N)=O)NC(=O)c1ccc2c(c1)C(=O)OC21c2ccc(O)cc2Oc2cc(O)ccc21)C(C)C)C(=O)N[C@H](C(=O)N[C@@H](CCCCN)C(=O)N[C@@H](CCCCN)C(=O)N[C@@H](CO)C(=O)N[C@@H](CO)C(=O)NCC(=O)NCC(N)=O)C(C)C	–	–	human, plasma	intravenous infusion, 400 mg, 0.25 h	–	plasma concentration	24500 ng/mL
Cc1nc(N(C)C(=O)Cc2ccc(-c3ccccn3)cc2)sc1S(N)(=O)=O	primary human fibroblasts uninfected	live/dead staining	–	48 h, capped at 10.00 µM	–	CC50	> 10 µM
CC1(C)CCC(c2ccc(Cl)cc2)=C(CN2CCN(c3ccc(C(=O)NS(=O)(=O)c4ccc(N[C@H](CCN5CCOCC5)CSc5ccccc5)c(S(=O)(=O)C(F)(F)F)c4)cc3)CC2)C1	mouse ileal enteroid monolayers	–	–	50 % saturated solubility, 2 h, basolateral fractions 1-10, with: taurocholate/phosphatidylcholine micelles	–	drug secreted with TRL	10.7 ± 8.8%
Cc1cc(Nc2ccc(S(F)(F)(F)(F)F)cc2)n2nc(C(C)(F)F)nc2n1	Plasmodium vivax	–	human Plasmodium vivax malaria patients	oral, 800 mg	–	patients with blood or lymphatic AEs	0%
COc1ccc2ccc(C)nc2c1O	RRCK low-efflux MDCK-II cells	–	–	1.5 h, 37 °C, apical to basal	–	Papp	3.4 ×10⁻⁶ cm/s
O=C1c2ccccc2C(=O)c2c(NCCc3ccc(O)cc3)ccc(NCCc3ccc(O)cc3)c21	THP-1 PMA-differentiated macrophages	CellTiter-Glo	–	72 h, host cell cytotoxicity	–	CC50	2.95 µM
Nc1nc(O)c2ncn(COC(CO)CO)c2n1	HEL	–	–	–	–	minimum cytotoxic concentration	> 100 µM
CCCCCCNc1nc(NC2CCN(C)CC2)c2cc(OC)c(OC)cc2n1	THP-1 PMA-differentiated macrophages	CellTiter-Glo	–	72 h, host cell cytotoxicity	–	CC50	1.19 µM
O=C(/C=C\n1cnc(-c2cc(C(F)(F)F)cc(C(F)(F)F)c2)n1)NNc1ccccn1	primary human fibroblasts uninfected	live/dead staining	–	48 h	–	CC50	> 60 µM
Cc1cc(C(=O)NC(C)(C)COc2cccc3c2C(N)=NS(=O)(=O)N3)cc(C)n1	human peripheral blood lymphocytes	in vitro micronucleus test	0.2% DMSO	250 µg/mL, 24 h	–	micronucleated binucleated cells	0.3%
Cc1cc(Nc2ccc(S(F)(F)(F)(F)F)cc2)n2nc(C(C)(F)F)nc2n1	EL4	–	culture medium	5 µM, 48 h	–	free drug concentration	600 nM
CC(C)CNC(=O)[C@H](C)NC(=O)[C@]1(Cc2ccccc2)CCN1C(=O)OCc1ccccc1	HEL	cell morphology	–	–	–	minimum cytotoxic concentration	> 100 µM
CN1C(C(=O)Nc2nccs2)=C(O)c2ccccc2S1(=O)=O	MDCK low-efflux cells	passive permeability	–	apical to basolateral	–	Papp	29.5 ×10⁻⁶ cm/s
CCCCCCCC[N+](CCCCCCCC)(CCCCCCCC)CCCCCCCC.[Br-]	hTERT-RPTEC-OAT1	–	–	concentration not given, Transwell, apical-to-basolateral addition	–	LDH release	259 mU/mL and 235 mU/mL
CCCc1nc2c(C)cc(-c3nc4ccccc4n3C)cc2n1Cc1ccc(-c2ccccc2C(=O)O)cc1	MDCK low-efflux cells	passive permeability	–	apical to basolateral	–	Papp	39.9 ×10⁻⁶ cm/s
C[C@@H](O)[C@@H](CO)NC(=O)[C@@H](CCCNC(=N)N)NC(=O)[C@@H]1CCCN1C(=O)[C@@H]1CSSC[C@H](NC(=O)[C@H](Cc2ccccc2)NC(=O)CN2CCN(CC(=O)O)CCN(CC(=O)O)CCN(CC(=O)O)CC2)C(=O)N[C@@H](Cc2ccc(O)cc2)C(=O)N[C@@H](Cc2ccccc2)C(=O)N[C@@H](CCC(N)=O)C(=O)N[C@@H](CC(N)=O)C(=O)N1 [gallium-68 labelled]	–	–	PBS	0 h, 37 °C	–	radiochemical purity	> 99%

For quick reference, copied from above:
Compound	target or system	test	system	conditions	scale	endpoint	result
O=C(O[C@@H]1COC(=O)c2cc(O)c(O)c(O)c2-c2c(cc(O)c(O)c2O)C(=O)O[C@H]1[C@@H]1OC(=O)c2cc(O)c(O)c(O)c2-c2c(O)c(O)c(O)c3c2C(=O)O[C@H]1[C@@H]3O)c1cc(O)c(O)c(O)c1	RPE cells	cytotoxicity	–	48 h	–	IC50	> 100 µg/mL
Nc1ncnc2c1ncn2C1CCCC1	SW-620	CellTiter-Glo	–	up to 100 µM, 8 days	reference: vehicle	viability	> 80%
Cc1nn(C)cc1S(=O)(=O)NC(=O)c1ccc(-n2ccc(OCC(C)(C)C(F)(F)F)n2)nc1N1C[C@@H](C)CC1(C)C	MDCK low-efflux cells	passive permeability	–	apical to basolateral	–	Papp	34.2 ×10⁻⁶ cm/s
C/C(O)=C(\C#N)C(=O)Nc1ccc(C(F)(F)F)cc1	EL4	–	culture medium	4 µM, 48 h	–	free drug concentration	1040 nM
